Measurements of several laboratories.
Numbered parts are unrelated; each lists some results of a single study. Substitutions count along the parent as printed.

Study 1
Target: CRIPT, C-terminal peptide
Method: DHFR complementation, deep sequencing
Medium: yeast
Setting: single substitutions, model-inferred values
Relative to: wild type
Direction: higher = weaker binding
Starting sequence: ERBIN, PDZ domain 1 (human); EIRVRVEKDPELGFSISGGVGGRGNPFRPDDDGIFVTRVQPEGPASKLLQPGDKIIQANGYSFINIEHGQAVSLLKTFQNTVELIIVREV; partner TKNYKQTSV
Substitution	binding free energy change [kcal/mol]
Q50M	-0.0675
V87I	-0.0167
K8F	1.26
G33W	0.984
S17M	0.633
I64R	0.0414
K54N	0.272
F63N	1.15

Study 2
Target: Myc proto-oncogene protein, bHLH-zipper, MAX partner unstated (MYC, Homo sapiens, UniProt P01106, residues 368-449)
Sequence of UniProt P01106 (368-449, looked up): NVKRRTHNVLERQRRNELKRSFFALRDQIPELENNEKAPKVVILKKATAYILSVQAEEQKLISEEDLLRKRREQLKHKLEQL
Method: protein-binding microarray
Form: double-stranded DNA, one strand shown
Medium: in vitro
Tested at: not given
Setting: k-mer, scored over probes, only values ≥0.25
Direction: higher = stronger binding
Strand	E-score
CATGGGGA	0.366
GCGTGGAC	0.413
CGCGCCCA	0.279
CACCACGA	0.349
CACCCACG	0.432
CATGCTTC	0.404
CACGCACG	0.424
AGCGTGCC	0.353

Study 3
Target: RING finger protein unkempt homolog, zinc fingers 1-6, GST-SBP tag (UNK, Homo sapiens, UniProt Q9C0B0, residues 30-357)
Sequence of UniProt Q9C0B0 (30-357, looked up): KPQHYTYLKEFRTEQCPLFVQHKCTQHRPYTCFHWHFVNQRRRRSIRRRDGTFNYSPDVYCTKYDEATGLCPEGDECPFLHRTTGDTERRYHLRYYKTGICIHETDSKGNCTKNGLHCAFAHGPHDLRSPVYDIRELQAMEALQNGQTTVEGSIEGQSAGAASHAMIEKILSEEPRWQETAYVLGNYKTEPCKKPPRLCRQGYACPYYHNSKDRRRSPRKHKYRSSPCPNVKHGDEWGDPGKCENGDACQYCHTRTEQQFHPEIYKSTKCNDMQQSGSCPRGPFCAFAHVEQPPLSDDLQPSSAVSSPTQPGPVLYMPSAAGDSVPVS
Method: RNA Bind-n-Seq
Form: RNA
Medium: in vitro
Tested at: not given
Setting: RNA with constant flanks, human-mouse chimeric sites, ends assumed
Relative to: input RNA pool
Direction: higher = stronger binding
All sequences stand within: GGGAGUUCUACAGUCCGACGAUC … CAACAGAGGAUUGAGCAUCA
Strand	bound/input enrichment [ratio]
UUGCUACUGACUCCCUGGGUCAAGUUCCUGUGGGAAUCAUACAGGCAGUGUUUGGACCUUCUUCGAAACAAUUCUAGAGUAGAGCGCCUGUACCAUGAUAUUGCCCAACAAGCUUUCAAA	0.144
AGAGAAAUGAGAAAGAAUCUUACACAAGAAGAGAUGCAAAGAAUGUCUACUAGAGUCCUUUUGGCGACUCUUUCCAUUCCUAUUACUCCUGAGCGAACGGAUAUUGCUCGACUUCUGGAU	0.302
CUGUGUGUGCUGAAUAAAUGGCUUGUAAAGAAGUUUUUCCAAGCUGUAACCCAUGCUUCCCUUAGAGUUGCUGCAAAAUGUUCUUCCUGAUAUUGAUGUUUGUUUACAACUGAAGGUCUC	0.159
AAAGAGAAAGCUAAAACACUAAUAGAGAAGAGGAUUGGCAAAGAGAAUUUCAUAGAGAAACUAGGAUUUUAUUAGCAACAUGAGUUAUAUUCCAGAGCGUCUCAGAAACCCCAGCCAAAC	9.7
AAAGAACUACUGAGGCAAGGCAGCAAAUUUAGGAGAGAUGUAUCAACACUAUUAAUAGAGUUAGGAUUCCAAAUUAAAAAGAAAACUAAGACAUUAUACAUCAACAAAGCCAAUGUGUGG	3.28
AUCAAAUACUUUGGGGACAUCAUUAGUGUGGGACAGAGACUGUUGCAAGGAGCUCGGAUCUUAGGGAUUCCUGUUAUCAUAACGGAACAAUACCCUAAAGGACUUGGCAGCACCGUUCAA	0.169
CUGGCACUCUAUCAGAUAUAUUAAUUUUUAAAUGUAGAUGUAAUUUUAAAAAUGAAUGGCUACUUUACACGUUUAACUAGGGUUUUACUAUAUAUGUGUACAUAUGUAUAUGUAUUUAUA	11.3
AGAGCCCAGGAUGUUGAUGCUACAAAUCCAAAUUACGAAAUUAUGUGUAUGAUCAGAGACUUUAGAGGGAGCUUGGAUUAUAGACCACUAACAACAGCAGAUCCUAUUGAUGAACAUAGG	1.09

Other studies, line by line
Starting sequence: viral docking peptide; TSVRRALFTGGSD
Substitution	target	assay	test system	conditions	how to read	endpoint	value
TSVRRALFKGGSD [T9K]	CCNA1, cyclin fold, Cln2 fusion (human)	yeast growth competition, sequencing	yeast	strong parent motif	relative to: not given, higher = stronger binding	normalised enrichment score	0.83

A few entries again (study 1):
Substitution	binding free energy change [kcal/mol]
Q50M	-0.0675
V87I	-0.0167
